{"data": "Assay results from different studies", "note": "Compare with care: the assays were run in different laboratories. ± gives the spread as reported."}
{"Structure (SMILES)": "CC(C)(C)O[C@@H]1C[C@@H](C(=O)N[C@H](Cc2ccccc2)C(=O)C(=O)NCc2ccc(Cl)cn2)N(C(=O)[C@@H](NC(=O)C2CCC(F)(F)CC2)C2CCCCC2)C1", "organism": "SARS-CoV-2", "test": "viral replication", "system": "wild type", "measurement": "EC50", "value": "19.8 ± 25.2 µM"}
{"Structure (SMILES)": "N#Cc1ccccc1C[C@@H](N)C(=O)N[C@H](Cc1ccc(Cl)cc1Cl)C(=O)N[C@H](CC(=O)NCCc1c[nH]cn1)Cc1ccc(F)cc1", "organism": "SARS-CoV-2", "test": "viral replication", "system": "USA-WA1/2020", "measurement": "EC50", "value": "3.1 µM"}
{"Structure (SMILES)": "O=C(NC1CCN(c2ncnc3[nH]cnc23)CC1)c1cccc(NS(=O)(=O)c2ccc(Cl)cc2)c1", "organism": "SARS-CoV-2", "test": "viral replication", "system": "Wuhan-Hu-1", "measurement": "EC50", "value": "1.37 µM"}
{"Structure (SMILES)": "CC[C@H](C)[C@H](NC(=O)[C@H](C)NC(=O)[C@H](CCC(=O)O)NC(=O)[C@H](CCC(=O)O)NC(=O)[C@H](CC(C)C)NC(=O)[C@H](CCCCN)NC(=O)[C@H](CCCCN)NC(=O)[C@H](CCSC)NC(=O)[C@H](CCC(=O)O)NC(=O)[C@H](Cc1ccc(O)cc1)NC(=O)[C@H](CCC(=O)O)NC(=O)[C@H](CC(C)C)NC(=O)[C@H](CC(=O)O)NC(=O)[C@H](CC(C)C)NC(=O)[C@H](Cc1ccccc1)NC(=O)[C@H](Cc1ccc(O)cc1)NC(=O)[C@@H](NC(=O)[C@H](CC(N)=O)NC(=O)[C@@H](NC(=O)[C@H](CCC(N)=O)NC(=O)[C@H](CC(=O)O)NC(=O)[C@H](CC(C)C)NC(=O)[C@@H](N)CO)[C@@H](C)CC)C(C)C)C(=O)N[C@@H](CCCCN)C(=O)N[C@@H](CCCCN)C(=O)N[C@@H](CC(C)C)C(=O)N[C@@H](CCC(=O)O)C(=O)N[C@@H](CCC(=O)O)C(=O)N[C@@H](C)C(=O)N[C@@H](Cc1ccc(O)cc1)C(=O)N[C@H](C(=O)N[C@@H](CC(=O)O)C(=O)N[C@@H](CC(C)C)C(=O)N[C@@H](CCCCN)C(=O)N[C@@H](CCC(=O)O)C(=O)N[C@@H](CC(C)C)C(=O)O)[C@@H](C)CC", "organism": "SARS-CoV-2 Beta pseudovirus", "test": "pseudovirus infection, inhibitor, luciferase", "system": "Caco-2", "setting": "24 h, dual mutations", "measurement": "IC50", "value": "534 nM"}
{"Structure (SMILES)": "Cc1ccc(S(=O)(=O)Nc2cccc(C(=O)NC3CCN(c4ncnc5[nH]cnc45)CC3)c2)cc1Cl", "organism": "SARS-CoV-2", "test": "viral replication", "system": "Wuhan-Hu-1", "measurement": "EC50", "value": "2.32 µM"}
{"Structure (SMILES)": "Cc1cncc(C(=O)N2CCN(C3c4ccccc4CCc4ccccc43)CC2)c1", "organism": "SARS-CoV-2", "test": "viral replication", "system": "USA-WA1/2020", "measurement": "EC50", "value": "0.36 µM"}
{"Structure (SMILES)": "N#Cc1ccccc1C[C@@H](N)C(=O)N[C@H](Cc1ccc(Cl)cc1Cl)C(=O)N[C@H](CC(=O)NCCCCC(=O)O)Cc1ccc(F)cc1", "organism": "SARS-CoV-2", "test": "viral replication", "system": "USA-WA1/2020", "measurement": "EC50", "value": "> 10 µM"}
{"Structure (SMILES)": "O=C(Nc1ccc(F)cc1)C1C(=O)N(O)C(=O)c2cc([N+](=O)[O-])ccc21 (stereo not shown)", "organism": "SARS-CoV-2", "test": "viral replication", "system": "VeroE6-TMPRSS2", "measurement": "EC50", "value": "> 50 µM"}
{"Structure (SMILES)": "N#Cc1ccccc1C[C@@H](N)C(=O)N[C@H](Cc1ccc(Cl)cc1Cl)C(=O)N[C@H](CC(=O)NCCCCN1CCOCC1)Cc1ccc(F)cc1", "organism": "SARS-CoV-2", "test": "viral replication", "system": "USA-WA1/2020", "measurement": "EC50", "value": "1.4 µM"}
{"Structure (SMILES)": "O=C(O)C(O)=CC(=O)c1ccc(O)c(O)c1", "organism": "SARS-CoV-2", "test": "viral replication", "system": "VeroE6-TMPRSS2", "measurement": "EC50", "value": "> 50 µM"}
{"Structure (SMILES)": "CC[C@H](C)[C@@H]1NC(=O)[C@H](Cc2c[nH]cn2)NC(=O)[C@H](Cc2ccc(O)cc2)NC(=O)[C@H](Cc2ccc(O)cc2)NC(=O)[C@H](C(C)C)NC(=O)[C@H](Cc2c[nH]cn2)NC(=O)[C@H](CCCCN)NC(=O)[C@H]([C@@H](C)O)NC(=O)[C@H](Cc2ccc(O)cc2)NC(=O)CSC[C@@H](C(N)=O)NC(=O)[C@H](Cc2ccc(O)cc2)NC(=O)[C@H](C(C)C)NC(=O)[C@H](CC(C)C)NC(=O)[C@H](Cc2ccc(O)cc2)NC(=O)[C@H]([C@@H](C)CC)NC(=O)[C@H]([C@@H](C)O)NC1=O", "organism": "SARS-CoV-2", "test": "viral replication", "system": "HEK293-ACE2-TMPRSS2", "measurement": "EC50", "value": "33.1 µM"}
{"Structure (SMILES)": "O=C(NC1CCN(c2ncnc3[nH]cnc23)CC1)c1cccc(NS(=O)(=O)c2ccc([N+](=O)[O-])cc2)c1", "organism": "SARS-CoV-2", "test": "viral replication", "system": "Wuhan-Hu-1", "measurement": "EC50", "value": "1.03 µM"}
{"Structure (SMILES)": "O=C(NCc1ccccc1)C1C(=O)N(O)C(=O)c2cc([N+](=O)[O-])ccc21 (stereo not shown)", "organism": "SARS-CoV-2", "test": "viral replication", "system": "VeroE6-TMPRSS2", "measurement": "EC50", "value": "> 50 µM"}
{"Structure (SMILES)": "CC(=O)NCCCCNC(=O)C[C@H](Cc1ccc(F)cc1)NC(=O)[C@@H](Cc1ccc(Cl)cc1Cl)NC(=O)[C@H](N)Cc1ccccc1C#N", "organism": "SARS-CoV-2", "test": "viral replication", "system": "USA-WA1/2020", "measurement": "EC50", "value": "5.5 µM"}
{"Structure (SMILES)": "CC[C@H](C)[C@H](NC(=O)[C@H](C)NC(=O)[C@H](CCC(=O)O)NC(=O)[C@H](CCC(=O)O)NC(=O)[C@H](CC(C)C)NC(=O)[C@H](CCCCN)NC(=O)[C@H](CCCCN)NC(=O)[C@H](CCSC)NC(=O)[C@H](CCC(=O)O)NC(=O)[C@H](Cc1ccc(O)cc1)NC(=O)[C@H](CCC(=O)O)NC(=O)[C@H](CC(C)C)NC(=O)[C@H](CC(=O)O)NC(=O)[C@H](CC(C)C)NC(=O)[C@H](Cc1ccccc1)NC(=O)[C@H](Cc1ccc(O)cc1)NC(=O)[C@@H](NC(=O)[C@H](CC(N)=O)NC(=O)[C@@H](NC(=O)[C@H](CCC(N)=O)NC(=O)[C@H](CC(=O)O)NC(=O)[C@H](CC(C)C)NC(=O)[C@@H](N)CO)[C@@H](C)CC)C(C)C)C(=O)N[C@@H](CCCCN)C(=O)N[C@@H](CCCCN)C(=O)N[C@@H](CC(C)C)C(=O)N[C@@H](CCC(=O)O)C(=O)N[C@@H](CCC(=O)O)C(=O)N[C@@H](CO)C(=O)N[C@@H](Cc1ccc(O)cc1)C(=O)N[C@H](C(=O)N[C@@H](CC(=O)O)C(=O)N[C@@H](CC(C)C)C(=O)N[C@@H](CCCCN)C(=O)N[C@@H](CCC(=O)O)C(=O)N[C@@H](CC(C)C)C(=O)O)[C@@H](C)CC", "organism": "SARS-CoV-2 Alpha pseudovirus", "test": "pseudovirus infection, inhibitor, luciferase", "system": "Caco-2", "setting": "24 h", "measurement": "IC50", "value": "623 nM"}
{"Structure (SMILES)": "O=C(O)C(O)=CC(=O)C1(Cc2ccc(Cl)cc2)CCN(C(=O)C=Cc2ccccc2)CC1", "organism": "SARS-CoV-2", "test": "viral replication", "system": "VeroE6-TMPRSS2", "measurement": "EC50", "value": "> 50 µM"}
{"note": "For quick reference, copied from above:"}
{"Structure (SMILES)": "N#Cc1ccccc1C[C@@H](N)C(=O)N[C@H](Cc1ccc(Cl)cc1Cl)C(=O)N[C@H](CC(=O)NCCc1c[nH]cn1)Cc1ccc(F)cc1", "organism": "SARS-CoV-2", "test": "viral replication", "system": "USA-WA1/2020", "measurement": "EC50", "value": "3.1 µM"}
{"Structure (SMILES)": "CC(=O)NCCCCNC(=O)C[C@H](Cc1ccc(F)cc1)NC(=O)[C@@H](Cc1ccc(Cl)cc1Cl)NC(=O)[C@H](N)Cc1ccccc1C#N", "organism": "SARS-CoV-2", "test": "viral replication", "system": "USA-WA1/2020", "measurement": "EC50", "value": "5.5 µM"}
